Assay results collected from several papers.
Protocols differ between the studies behind these lines. Numbers after ± are the reported error.

CC(C)(Sc1ccncc1-c1ccc(C#N)c2ccccc12)C(=O)O — t1/2 (human, male, Japanese, plasma; oral, 10 mg, day 1, fasted, single dose): 8.79 h
CC(C)NC[C@@H](C(=O)N1CCN(c2ncnc3c2[C@H](C)C[C@H]3O)CC1)c1ccc(Cl)cc1 — t1/2 (human, Severe hepatic function, plasma; oral, 100 mg single dose, NCI classification, arithmetic mean): 86.1 h
C=C(C)[C@@H]1CC[C@]2(NCCN3CCS(=O)(=O)CC3)CC[C@]3(C)[C@H](CC[C@@H]4[C@@]5(C)CC=C(C6=CC[C@@](CF)(C(=O)O)CC6)C(C)(C)[C@@H]5CC[C@]43C)[C@@H]12 — t1/2 (healthy human; oral, 30 mg, single ascending dose, geometric mean): 21.2 h
CC[C@H](C)[C@H](NC(=O)[C@H](CCC(=O)O)NC(=O)[C@H](CO)NC(=O)[C@@H](NC(=O)[C@@H](N)CO)C(C)C)C(=O)N[C@@H](CCC(N)=O)C(=O)N[C@@H](CC(C)C)C(=O)N[C@@H](CCSC)C(=O)N[C@@H](Cc1cnc[nH]1)C(=O)N[C@@H](CC(N)=O)C(=O)N[C@@H](CC(C)C)C(=O)NCC(=O)N[C@@H](CCCCN)C(=O)N[C@@H](Cc1cnc[nH]1)C(=O)N[C@@H](CC(C)C)C(=O)N[C@@H](CC(N)=O)C(=O)N[C@@H](CO)C(=O)N[C@@H](CCSC)C(=O)N[C@@H](CCC(=O)O)C(=O)N[C@@H](CCCN=C(N)N)C(=O)N[C@H](C(=O)N[C@@H](CCC(=O)O)C(=O)N[C@@H](Cc1c[nH]c2ccccc12)C(=O)N[C@@H](CC(C)C)C(=O)N[C@@H](CCCN=C(N)N)C(=O)N[C@@H](CCCCN)C(=O)N[C@@H](CCCCN)C(=O)N[C@@H](CC(C)C)C(=O)N[C@@H](CCC(N)=O)C(=O)N[C@@H](CC(=O)O)C(=O)N[C@H](C(=O)N[C@@H](Cc1cnc[nH]1)C(=O)N[C@@H](CC(N)=O)C(=O)N[C@@H](Cc1ccccc1)C(=O)O)C(C)C)C(C)C — t1/2 (human, plasma; sc, 56.5 µg once weekly, day 36, arithmetic mean): 1.18 ± 0.463 h
COc1cc(Nc2ncc3c(n2)-c2ccc(Cl)cc2C(c2c(F)cccc2OC)=NC3)ccc1C(=O)O — t1/2 (human, plasma; oral, 40 mg twice daily, day 7, steady state, ECT): 19 h
CN(C)C(=O)c1cc2cnc(Nc3ccc(N4CCNCC4)cn3)nc2n1C1CCCC1 — t1/2 (human, normal renal function, plasma; oral, 400 mg, geometric mean): 36 h
CNC(=O)c1cc(Oc2ccc(NC(=O)Nc3ccc(Cl)c(C(F)(F)F)c3)cc2)ccn1 — t1/2 (LC-MS/MS; nude mice, HepG2 subcutaneous tumour, tumour; intratumoral, 20 µL per tumour, miR-140-3p): 39.9 ± 4.07 h
COc1ccc2[nH]c([S+]([O-])Cc3ncc(C)c(OC)c3C)nc2c1 (stereo not drawn) — t1/2 (UHPLC-MS/MS, noncompartmental; healthy Chinese volunteers, CYP2C19 *2/*2, plasma; oral, 20 mg single dose): 2.51 ± 0.82 h
Cc1cc(C)c2c(c1)[C@@H](N(Cc1cc(C(F)(F)F)cc(C(F)(F)F)c1)c1nnn(C)n1)CCCN2C[C@H]1CC[C@H](C(=O)O)CC1 — t1/2 (LC-MS/MS; human, plasma; oral, 100 mg once daily, steady state): 44 h
